Measured values pooled from the literature.
Compare with care: the assays were run in different laboratories.
MET Y1230D: Hepatocyte growth factor receptor (MET, Homo sapiens, UniProt P08581, Y1230D)
MET: Hepatocyte growth factor receptor (MET, Homo sapiens, UniProt P08581)

Cc1ccc(NC(=O)c2ccc(C)c(C(F)(F)F)c2)cc1C#Cc1nn(C2CCC(O)CC2)c2ncnc(N)c12 (centres unmarked)  remaining signal (MET Y1230D; cell-free assay; 10 µM): 105%
COc1cc(-c2cncc3c2CN(C)Cc2cc(N4CCNCC4)ccc2-3)cc(OC)c1OC  remaining activity (Hepatocyte growth factor receptor (MET, Homo sapiens, UniProt P08581, Y1230C); enzyme activity, inhibitor; 1 µM): 92%
CNc1ncc2c(/C=C/C(=O)N3CCC(OC)CC3)nn(Cc3cccc(C(F)(F)F)c3)c2n1  remaining activity (MET; enzyme activity, inhibitor, radiometric; 1 µM): 91%
Cc1cc([C@@H](C)Nc2ccccc2C(=O)O)c2nc(N3CCC(F)(F)CC3)c(C#N)c(=O)n2c1  remaining binding (MET; binding, competition with immobilised ligand; 10 µM): 100%
CCCCC(=O)Nc1ccc(-c2ccc3ncn(CCC)c(=O)c3c2)cn1  remaining binding (Hepatocyte growth factor receptor (MET, Homo sapiens, UniProt P08581, Y1235D); binding, competition with immobilised ligand; 0.5 µM): 88%
C1=C/COCc2cc(ccc2OCCN2CCCC2)Nc2nccc(n2)-c2cccc(c2)COC/1  remaining binding (MET; binding; 0.1 µM): 83%
Cc1cnc(NC2CCOCC2)nc1-n1cnc(C(=O)NC(CN)c2cc(F)cc(Cl)c2)c1 (centres unmarked)  remaining activity (Hepatocyte growth factor receptor (MET, Homo sapiens, UniProt P08581, Y1230H); enzyme activity, inhibitor, radiometric; 1 µM): 93%
Cc1cc(NC(=O)c2cccc3cc(-c4cccc5[nH]nc(N)c45)ccc23)ccc1F  activity vs control (MET Y1230D; enzyme activity, inhibitor; 0.1 µM): 123%

Excerpt of the above:
CNc1ncc2c(/C=C/C(=O)N3CCC(OC)CC3)nn(Cc3cccc(C(F)(F)F)c3)c2n1  remaining activity (MET; enzyme activity, inhibitor, radiometric; 1 µM): 91%
